Results collected from several papers.
Numbered parts are unrelated; each lists some results of a single study.
UniProt P42336, sequence (whole entry, unmodified, looked up): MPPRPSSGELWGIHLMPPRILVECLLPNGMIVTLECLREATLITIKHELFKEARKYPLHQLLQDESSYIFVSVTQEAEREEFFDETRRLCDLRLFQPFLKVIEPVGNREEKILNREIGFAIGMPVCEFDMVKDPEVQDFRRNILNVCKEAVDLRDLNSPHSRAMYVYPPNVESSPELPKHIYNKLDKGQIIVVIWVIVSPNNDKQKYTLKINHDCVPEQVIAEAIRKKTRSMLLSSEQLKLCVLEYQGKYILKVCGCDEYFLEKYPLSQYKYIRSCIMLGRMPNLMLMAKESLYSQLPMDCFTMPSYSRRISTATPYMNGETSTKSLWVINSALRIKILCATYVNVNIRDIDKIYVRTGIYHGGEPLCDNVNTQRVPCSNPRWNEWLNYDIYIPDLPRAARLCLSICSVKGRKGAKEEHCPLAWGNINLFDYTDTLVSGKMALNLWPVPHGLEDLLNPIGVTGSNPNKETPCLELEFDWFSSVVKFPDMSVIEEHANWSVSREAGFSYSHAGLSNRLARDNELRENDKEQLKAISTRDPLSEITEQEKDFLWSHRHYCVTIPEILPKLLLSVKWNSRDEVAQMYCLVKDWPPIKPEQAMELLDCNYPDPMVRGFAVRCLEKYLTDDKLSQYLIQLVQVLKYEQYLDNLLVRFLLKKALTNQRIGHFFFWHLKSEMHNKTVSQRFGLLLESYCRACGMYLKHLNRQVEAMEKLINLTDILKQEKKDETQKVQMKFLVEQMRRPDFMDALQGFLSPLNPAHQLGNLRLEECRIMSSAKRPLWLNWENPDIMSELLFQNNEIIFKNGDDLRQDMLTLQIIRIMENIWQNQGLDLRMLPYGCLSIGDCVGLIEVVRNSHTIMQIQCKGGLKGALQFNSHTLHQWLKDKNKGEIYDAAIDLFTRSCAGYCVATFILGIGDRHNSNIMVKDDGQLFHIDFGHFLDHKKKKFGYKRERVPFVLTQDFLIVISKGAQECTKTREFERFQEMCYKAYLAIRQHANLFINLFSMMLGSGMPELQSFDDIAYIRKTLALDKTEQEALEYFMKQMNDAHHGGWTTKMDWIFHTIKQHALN
UniProt Q13237, sequence (whole entry, looked up): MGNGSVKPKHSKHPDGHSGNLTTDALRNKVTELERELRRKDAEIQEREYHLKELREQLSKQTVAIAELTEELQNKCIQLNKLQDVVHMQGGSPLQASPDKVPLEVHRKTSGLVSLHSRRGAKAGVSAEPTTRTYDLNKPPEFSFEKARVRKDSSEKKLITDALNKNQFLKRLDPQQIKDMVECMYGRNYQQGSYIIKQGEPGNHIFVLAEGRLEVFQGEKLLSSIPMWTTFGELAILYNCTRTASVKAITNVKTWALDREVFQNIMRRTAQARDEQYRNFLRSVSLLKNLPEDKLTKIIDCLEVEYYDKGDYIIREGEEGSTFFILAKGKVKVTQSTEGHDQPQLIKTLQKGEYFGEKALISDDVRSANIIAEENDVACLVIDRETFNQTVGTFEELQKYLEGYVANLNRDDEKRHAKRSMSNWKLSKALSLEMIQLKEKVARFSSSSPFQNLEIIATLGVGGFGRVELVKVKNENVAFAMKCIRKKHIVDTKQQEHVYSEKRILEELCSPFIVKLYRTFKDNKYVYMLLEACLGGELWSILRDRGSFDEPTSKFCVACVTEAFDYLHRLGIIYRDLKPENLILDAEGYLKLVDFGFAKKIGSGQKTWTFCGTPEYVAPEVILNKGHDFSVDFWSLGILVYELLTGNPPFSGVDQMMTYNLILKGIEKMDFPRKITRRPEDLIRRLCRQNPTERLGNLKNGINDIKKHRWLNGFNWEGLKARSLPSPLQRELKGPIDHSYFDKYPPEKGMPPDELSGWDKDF
UniProt Q8N5S9, sequence (whole entry, looked up): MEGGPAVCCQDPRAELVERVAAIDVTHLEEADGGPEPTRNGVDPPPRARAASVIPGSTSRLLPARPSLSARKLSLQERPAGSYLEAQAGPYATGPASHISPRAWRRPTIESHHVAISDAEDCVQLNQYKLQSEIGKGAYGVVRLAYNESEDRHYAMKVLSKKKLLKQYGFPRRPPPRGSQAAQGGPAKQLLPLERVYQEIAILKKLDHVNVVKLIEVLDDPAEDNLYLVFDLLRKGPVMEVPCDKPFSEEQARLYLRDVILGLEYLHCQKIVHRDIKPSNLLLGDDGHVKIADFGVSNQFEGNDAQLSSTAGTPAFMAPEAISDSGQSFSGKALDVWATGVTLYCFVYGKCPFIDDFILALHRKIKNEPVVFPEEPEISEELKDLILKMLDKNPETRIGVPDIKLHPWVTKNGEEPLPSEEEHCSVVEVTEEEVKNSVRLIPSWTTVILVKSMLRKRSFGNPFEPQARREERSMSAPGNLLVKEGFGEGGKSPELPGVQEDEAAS
UniProt Q9UIK4, sequence (whole entry, looked up): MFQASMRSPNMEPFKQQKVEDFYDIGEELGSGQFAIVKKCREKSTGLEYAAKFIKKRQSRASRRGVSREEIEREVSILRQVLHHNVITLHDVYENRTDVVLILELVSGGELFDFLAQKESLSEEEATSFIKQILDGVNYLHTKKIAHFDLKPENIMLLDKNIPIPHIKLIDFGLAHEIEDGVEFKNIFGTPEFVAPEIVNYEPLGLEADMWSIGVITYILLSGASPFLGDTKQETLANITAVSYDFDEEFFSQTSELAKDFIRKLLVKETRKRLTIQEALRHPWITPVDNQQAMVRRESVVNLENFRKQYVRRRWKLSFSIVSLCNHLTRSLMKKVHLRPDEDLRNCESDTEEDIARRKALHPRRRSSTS
UniProt P50750, sequence (whole entry, looked up): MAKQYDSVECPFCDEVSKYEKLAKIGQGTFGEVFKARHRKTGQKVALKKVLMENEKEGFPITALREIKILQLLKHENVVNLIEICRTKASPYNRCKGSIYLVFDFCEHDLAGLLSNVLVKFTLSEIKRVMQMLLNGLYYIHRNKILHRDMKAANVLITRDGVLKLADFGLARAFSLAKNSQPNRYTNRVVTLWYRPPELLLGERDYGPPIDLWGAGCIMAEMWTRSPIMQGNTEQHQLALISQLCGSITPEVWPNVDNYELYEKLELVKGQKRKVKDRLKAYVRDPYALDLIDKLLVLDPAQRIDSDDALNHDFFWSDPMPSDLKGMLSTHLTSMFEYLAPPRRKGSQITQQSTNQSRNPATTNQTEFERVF

Set 1
Target: Myosin light chain kinase, smooth muscle (MYLK, Homo sapiens, UniProt Q15746)
UniProt Q15746, sequence (whole entry, looked up): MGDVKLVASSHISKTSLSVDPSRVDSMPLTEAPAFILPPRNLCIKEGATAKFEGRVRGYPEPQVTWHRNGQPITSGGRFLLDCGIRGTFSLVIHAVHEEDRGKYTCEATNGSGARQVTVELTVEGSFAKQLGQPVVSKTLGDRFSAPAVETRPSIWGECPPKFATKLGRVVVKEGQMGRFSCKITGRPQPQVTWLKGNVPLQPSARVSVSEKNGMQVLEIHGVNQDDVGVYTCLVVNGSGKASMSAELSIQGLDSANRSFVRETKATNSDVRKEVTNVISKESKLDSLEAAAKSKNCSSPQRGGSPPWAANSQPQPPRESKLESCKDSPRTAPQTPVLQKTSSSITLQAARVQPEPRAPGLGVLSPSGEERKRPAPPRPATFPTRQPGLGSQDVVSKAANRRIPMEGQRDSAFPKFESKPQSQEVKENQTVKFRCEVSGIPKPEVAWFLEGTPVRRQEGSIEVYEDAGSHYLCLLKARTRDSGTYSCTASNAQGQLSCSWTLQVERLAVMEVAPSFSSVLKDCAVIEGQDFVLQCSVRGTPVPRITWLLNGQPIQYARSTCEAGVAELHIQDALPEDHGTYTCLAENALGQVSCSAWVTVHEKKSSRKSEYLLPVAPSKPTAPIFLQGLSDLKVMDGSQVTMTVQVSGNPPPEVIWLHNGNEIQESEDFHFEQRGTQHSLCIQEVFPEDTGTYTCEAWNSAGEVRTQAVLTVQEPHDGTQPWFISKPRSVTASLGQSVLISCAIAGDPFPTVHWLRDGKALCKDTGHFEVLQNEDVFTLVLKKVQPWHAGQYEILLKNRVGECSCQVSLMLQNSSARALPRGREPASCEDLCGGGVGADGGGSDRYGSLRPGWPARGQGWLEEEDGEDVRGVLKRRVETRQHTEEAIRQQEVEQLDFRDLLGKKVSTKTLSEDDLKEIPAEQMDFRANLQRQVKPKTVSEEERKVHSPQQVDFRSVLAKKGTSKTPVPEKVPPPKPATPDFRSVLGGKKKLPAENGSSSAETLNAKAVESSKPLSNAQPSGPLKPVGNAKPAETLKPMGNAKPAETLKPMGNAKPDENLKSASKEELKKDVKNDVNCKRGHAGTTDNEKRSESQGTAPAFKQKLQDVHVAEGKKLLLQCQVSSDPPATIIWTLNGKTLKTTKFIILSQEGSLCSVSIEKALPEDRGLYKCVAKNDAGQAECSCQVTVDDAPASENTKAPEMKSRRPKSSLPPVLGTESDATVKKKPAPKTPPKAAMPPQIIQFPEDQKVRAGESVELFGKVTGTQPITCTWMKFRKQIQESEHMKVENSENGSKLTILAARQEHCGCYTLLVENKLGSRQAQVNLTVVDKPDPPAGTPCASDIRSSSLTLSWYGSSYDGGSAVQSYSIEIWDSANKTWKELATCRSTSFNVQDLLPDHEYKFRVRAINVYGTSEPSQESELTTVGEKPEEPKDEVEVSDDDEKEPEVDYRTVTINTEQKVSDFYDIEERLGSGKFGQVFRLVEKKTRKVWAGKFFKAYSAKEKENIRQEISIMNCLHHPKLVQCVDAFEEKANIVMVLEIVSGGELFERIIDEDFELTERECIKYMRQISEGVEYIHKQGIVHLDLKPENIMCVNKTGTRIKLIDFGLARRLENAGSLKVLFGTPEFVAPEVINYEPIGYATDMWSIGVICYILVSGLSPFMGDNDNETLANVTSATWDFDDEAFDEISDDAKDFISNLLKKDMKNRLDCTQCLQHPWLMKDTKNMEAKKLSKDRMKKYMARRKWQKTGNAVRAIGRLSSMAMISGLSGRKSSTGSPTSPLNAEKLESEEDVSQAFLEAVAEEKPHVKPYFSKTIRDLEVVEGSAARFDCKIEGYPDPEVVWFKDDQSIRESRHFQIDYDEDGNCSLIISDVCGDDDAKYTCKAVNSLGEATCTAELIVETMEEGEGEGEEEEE
Observed: enzyme activity
Mode: inhibitor
Tested at: 0.5 µM
Reference: control
| Compound | remaining activity [%] |
| --- | --- |
| O=c1c(-c2ccc(F)cc2)c(-c2ccncc2)[nH]n1-c1ccc(Cl)cc1 | 101 |
| CC(C)(C)c1nc2c3cc[nH]c(=O)c3c3cc(F)ccc3c2[nH]1 | 9.03 |
| NC(=O)c1cccc(-c2cc(Nc3ccc(OC(F)(F)F)cc3)ncn2)c1 | 91.9 |
| COc1cc2c(Nc3ccc(Br)cc3F)ncnc2cc1OCC1CCN(C)CC1 | 94.2 |
| N#CC(c1ccnc(NCCc2cccnc2)n1)c1nc2ccccc2s1 (stereo not shown) | 97.9 |
| O=C(c1ccccc1)c1ccc(N2CCOCC2)cc1O | 91.8 |
| CCN(CC)CCCCN1c2ccccc2Oc2ccc(Cl)cc21 | 97 |
| O=C(O)/C=C/c1cc(Br)c(Br)c(Br)c1Br | 83.3 |
| CNc1cc2c(Nc3cccc(Br)c3)ncnc2cn1 | 79.5 |
| C[C@@H](N)[C@H]1CC[C@H](C(=O)Nc2ccncc2)CC1 | 97.4 |
| O=Nc1c(-c2c(O)[nH]c3ccccc23)[nH]c2ccccc12 | 65 |
| N#C/C(=C(/N)SC1C=CC=CC1)c1cccc(C(O)c2ccncc2)c1 (stereo not shown) | 106 |
| CC(C)N(CCC(=O)c1ccc2ccccc2c1)Cc1ccccc1 | 95.6 |
| c1cc(-c2cnn3cc(-c4ccc(OCCN5CCCCC5)cc4)cnc23)ccn1 | 91.6 |
| O=C1NC(=O)/C(=C/c2ccc3c(c2)OC(F)(F)O3)S1 | 99.4 |
| COc1cc2c(N3CCN(C(=O)Nc4ccc(OC(C)C)cc4)CC3)ncnc2cc1OCCCN1CCCCC1 | 96.6 |
| CCCCc1c(-c2ccc(O)cc2)[nH]c2nccnc12 | 101 |
| Clc1ccc(Nc2nnc(Cc3ccncc3)c3ccccc23)cc1 | 97.5 |
| Nc1nc(Nc2ccc(S(N)(=O)=O)cc2)nn1C(=S)Nc1c(F)cccc1F | 78.8 |
| NC(=O)c1ccc(-c2nc(-c3ccc4c(c3)OCCO4)c(-c3ccccn3)[nH]2)cc1 | 99.2 |
| CC(C)n1cnc2c(Nc3cccc(Cl)c3)nc(NCCO)nc21 | 87.8 |
| FC(F)(F)c1ccc(/C=C/c2nc(COc3ccc(CCCCn4ccnn4)cc3)co2)cc1 | 94.8 |
| O=C1c2ccccc2-c2nc3nnnn3nc21 | 94.1 |

Set 2
Compound: CC(=O)N1CCC(c2ccc(C(=O)NC3=NCCN3)cc2C(F)(F)F)CC1
Method: competition with immobilised ligand
Tested at: 1 µM
| target | observed | remaining binding [%] |
| --- | --- | --- |
| FLT4 (Homo sapiens, UniProt P35916) | cell-free assay | 98 |
| EGFR (Homo sapiens, UniProt P00533, G719C) | cell-free assay | 100 |
| Tyrosine-protein kinase ABL1, non-phosphorylated (ABL1, Homo sapiens, UniProt P00519, T315I) | cell-free assay | 87 |
| ANKK1 (Homo sapiens, UniProt Q8NFD2) | cell-free assay | 100 |
| CDC42BPA (Homo sapiens, UniProt Q5VT25) | cell-free assay | 100 |
| PRKACB (Homo sapiens, UniProt P22694) | cell-free assay | 100 |
| PIK3CA (Homo sapiens, UniProt P42336, H1047L) | cell-free assay | 100 |
| DAPK2 (Homo sapiens, UniProt Q9UIK4) | cell-free assay | 100 |
| PTK2B (Homo sapiens, UniProt Q14289) | cell-free assay | 100 |
| MAP4K3 (Homo sapiens, UniProt Q8IVH8) | cell-free assay | 95 |
| PNCK (Homo sapiens, UniProt Q6P2M8) | cell-free assay | 88 |
| PIK3CB (Homo sapiens, UniProt P42338) | cell-free assay | 100 |
| PTK2 (Homo sapiens, UniProt Q05397) | cell-free assay | 17 |
| CDK7 (Homo sapiens, UniProt P50613) | cell-free assay | 89 |
| STK35 (Homo sapiens, UniProt Q8TDR2) | cell-free assay | 100 |
| CDK9 (Homo sapiens, UniProt P50750) | cell-free assay | 84 |
| BMPR1A (Homo sapiens, UniProt P36894) | binding | 100 |
| PRPF4B (Homo sapiens, UniProt Q13523) | cell-free assay | 100 |

Set 3
SMILES: CC(C)n1cnc(-c2ccc(F)cc2)c1-c1ncc(C(=O)Nc2ccc(N3CCN(C)CC3)cc2)[nH]1
| method | host | dose | notes | patients with respiratory failure [%] |
| --- | --- | --- | --- | --- |
| phase 2a trial | idiopathic pulmonary fibrosis patients | 30 mg once daily | grade 3 emergent event | 0 |
| phase 2a trial | idiopathic pulmonary fibrosis patients | all arms | grade 2 emergent event | 0 |
| phase 2a trial | idiopathic pulmonary fibrosis patients | 60 mg once daily | grade 5 emergent event | 0 |
| phase 2a trial | idiopathic pulmonary fibrosis patients | 30 mg once daily | grade 5 emergent event | 0 |
| – | human, idiopathic pulmonary fibrosis | 30 mg once daily | trial, treatment-emergent | 0 |
| phase 2a trial | idiopathic pulmonary fibrosis patients | 60 mg once daily | grade 4 emergent event | 0 |
| phase 2a trial | idiopathic pulmonary fibrosis patients | 60 mg once daily | grade 2 emergent event | 0 |
| phase 2a trial | idiopathic pulmonary fibrosis patients | 30 mg once daily | grade 4 emergent event | 0 |
| phase 2a trial | idiopathic pulmonary fibrosis patients | 30 mg once daily | grade 1 emergent event | 0 |

Set 4
SMILES: CC#CC(=O)N1CCC[C@H]1c1nc(-c2ccc(C(=O)Nc3ccccn3)cc2)c2c(N)nccn12
Observed: enzyme activity
Mode: inhibitor
Tested at: 1 µM
| target | inhibition [%] |
| --- | --- |
| PI4KB (Homo sapiens, UniProt Q9UBF8) | 0 |
| ACVR2A (Homo sapiens, UniProt P27037) | 0 |
| LIM domain kinase 1 (LIMK1, Homo sapiens, UniProt P53667) | 79 |
| CAMKK2 (Homo sapiens, UniProt Q96RR4) | 0 |
| EPHA3 (Homo sapiens, UniProt P29320) | 0 |
| MAP3K14 (Homo sapiens, UniProt Q99558) | 4 |
| PRKG2 (Homo sapiens, UniProt Q13237) | 0 |
| PIK3CA (Homo sapiens, UniProt P42336, E545A) | 3 |
| WEE2 (Homo sapiens, UniProt P0C1S8) | 0 |
| CAMKK1 (Homo sapiens, UniProt Q8N5S9) | 0 |
| PRKACB (Homo sapiens, UniProt P22694) | 0 |

A few entries again (set 4):
| target | inhibition [%] |
| --- | --- |
| PRKG2 (Homo sapiens, UniProt Q13237) | 0 |
| PIK3CA (Homo sapiens, UniProt P42336, E545A) | 3 |
| WEE2 (Homo sapiens, UniProt P0C1S8) | 0 |
| CAMKK1 (Homo sapiens, UniProt Q8N5S9) | 0 |
